Assay results collected from several papers.
Each numbered part is a random draw from the data of one study; scales do not carry over between parts. “And” joins repeats or separate records; there may be more than shown.

Block 1
Target: Alpha-2A adrenergic receptor (ADRA2A, Homo sapiens, UniProt P08913)
Sequence of UniProt P08913 (whole entry, looked up): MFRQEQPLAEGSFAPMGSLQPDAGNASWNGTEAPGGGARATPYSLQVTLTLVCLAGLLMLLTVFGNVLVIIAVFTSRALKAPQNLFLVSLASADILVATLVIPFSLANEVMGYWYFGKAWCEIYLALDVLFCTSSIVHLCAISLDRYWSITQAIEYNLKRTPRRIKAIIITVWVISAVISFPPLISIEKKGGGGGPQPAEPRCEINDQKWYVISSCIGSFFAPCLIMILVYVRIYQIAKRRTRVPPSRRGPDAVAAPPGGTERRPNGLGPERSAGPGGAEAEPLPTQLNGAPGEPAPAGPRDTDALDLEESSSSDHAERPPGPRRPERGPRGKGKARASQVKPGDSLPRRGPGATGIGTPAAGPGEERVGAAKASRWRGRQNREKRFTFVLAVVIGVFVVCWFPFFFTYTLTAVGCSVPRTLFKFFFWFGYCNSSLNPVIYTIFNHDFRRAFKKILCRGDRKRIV
Effect on: binding
Method: radioligand binding
Tested at: 10 µM
Measurement: inhibition
Nc1c(C(=O)NCc2ccc(C(=O)NCCCC3CCCCC3)cc2)cnn1-c1ccccc1: 4.08%
CC(C)CC(=O)N1CCc2nc(-c3ccc(Br)cc3)nc(N(C)Cc3ccccc3)c2C1: 48.4%
O=C1c2ccc(Nc3ccc(F)cc3F)cc2CCc2ccc(OC[C@H](O)CO)cc21: 39.6%
Cc1c[nH]c2nccc(Oc3c(F)cc(Nc4cc(Cl)nc(N)n4)cc3F)c12: -10.1%
CNC(=O)Nc1ccc2c(c1)[C@]1(CC2)OC(=O)N(CC(=O)N(Cc2ccc(F)cc2)[C@@H](C)C(F)(F)F)C1=O: -1.4%
Cc1nc(Cc2cccc(C(F)(F)F)c2)sc1-c1ccc(C(N)=O)nc1: 4.44%
Cc1nccc(COC(=O)N2C[C@@H]3[C@@H](CNC(=O)c4ccc5[nH]nnc5c4)[C@@H]3C2)n1: 2.2%
CN1CCN(C(=O)C(C)(C)c2ccc(C(=O)Nc3cn4cc(-c5ccncc5)ccc4n3)cc2)CC1: 2.61%
O=C(Nc1cnc(Oc2ccc(F)cc2)nc1)N1CCc2ncccc2[C@@H]1c1ccc(F)cc1: 9.77%
CC(C)(O)c1cncc(-c2nc3ccc(F)cc3n2C2CC2)c1: 74.6%
CNC(=O)c1ccc(Nc2ncc(C(F)(F)F)c(NCc3nccnc3N(C)S(C)(=O)=O)n2)cc1: 9.61%
O=C(NC[C@@H]1[C@H]2CN(C(=O)OCc3cc(C(F)(F)F)cc(C(F)(F)F)c3)C[C@@H]12)c1ccc2[nH]nnc2c1: 14.3%
CN1C(=O)[C@@H](N2CCc3cn(Cc4ccccc4)nc3C2=O)COc2ccccc21: 19.1%
CC(=O)N1CCC(c2ccc(C(=O)NC(=N)N)cc2C(F)(F)F)CC1: -0.34%

Block 2
Partner: ARF22 498-598 (Arabidopsis thaliana, UniProt Q9C8N7)
Method: two-hybrid
Reference: out of 4 tests
Direction: higher = firmer interaction
Measurement: positive tests
B1: IAA32 (Arabidopsis thaliana, UniProt Q8RYC6); chain MDPNTPADFFKGSSKFHTYYSQTKKGGGVIDLGLSLRTIQHETYLPPARMIGLDGYGELIDWSQPSYNSITQLKSEDTGHQRLAQGYYNNEGESRGKYAYVKVNLDGLVVGRKVCLVDQGAYATLALQLNDMFGMQTVSGLRLFQTESEFSLVYRDREGIWRNVGDVPWKEFVESVDRMRIARRNDALLPF
B2: IAA14 (Arabidopsis thaliana, UniProt Q38832); chain MNLKETELCLGLPGGTETVESPAKSGVGNKRGFSETVDLKLNLQSNKQGHVDLNTNGAPKEKTFLKDPSKPPAKAQVVGWPPVRNYRKNVMANQKSGEAEEAMSSGGGTVAFVKVSMDGAPYLRKVDLKMYTSYKDLSDALAKMFSSFTMGSYGAQGMIDFMNESKVMDLLNSSEYVPSYEDKDGDWMLVGDVPWPMFVESCKRLRIMKGSEAIGLAPRAMEKFKNRS
B3: ARF2 727-859 (Arabidopsis thaliana, UniProt Q94JM3); chain TKTNSSRSCTKVHKQGIALGRSVDLSKFQNYEELVAELDRLFEFNGELMAPKKDWLIVYTDEENDMMLVGDDPWQEFCCMVRKIFIYTKEEVRKMNPGTLSCRSEEEAVVGEGSDAKDAKSASNPSLSSAGNS
B4: IAA28 (Arabidopsis thaliana, UniProt Q9XFM0); chain MEEEKRLELRLAPPCHQFTSNNNINGSKQKSSTKETSFLSNNRVEVAPVVGWPPVRSSRRNLTAQLKEEMKKKESDEEKELYVKINMEGVPIGRKVNLSAYNNYQQLSHAVDQLFSKKDSWDLNRQYTLVYEDTEGDKVLVGDVPWEMFVSTVKRLHVLKTSHAFSLSPRKHGKE
B5: ARF6 790-935 (Arabidopsis thaliana, UniProt Q9ZTX8); chain SENPQSNTFVKVYKSGSFGRSLDISKFSSYHELRSELARMFGLEGQLEDPVRSGWQLVFVDRENDVLLLGDDPWPEFVSSVWCIKILSPQEVQQMGKRGLELLNSAPSSNNVDKLPSNGNCDDFGNRSDPRNLGNGIASVGGSFNY
B6: ARF7 1030-1164 (Arabidopsis thaliana, UniProt P93022); chain PAQTQRMRTYTKVQKRGSVGRSIDVNRYRGYDELRHDLARMFGIEGQLEDPQTSDWKLVYVDHENDILLVGDDPWEEFVNCVQSIKILSSAEVQQMSLDGNFAGVPVTNQACSGGDSGNAWRGHYDDNSATSFNR
Construct (chain): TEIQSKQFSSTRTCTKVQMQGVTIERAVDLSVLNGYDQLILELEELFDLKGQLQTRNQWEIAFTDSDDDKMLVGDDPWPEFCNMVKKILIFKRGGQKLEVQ
B1 (IAA32): 4
B2 (IAA14): 2
B3 (ARF2 727-859): 0
B4 (IAA28): 3
B5 (ARF6 790-935): 0
B6 (ARF7 1030-1164): 0

Block 3
Cell line: mouse MPNST tumor cells
Method: high-content immunofluorescence imaging
Refers to: nuclear SOX9
Tested at: 10 µM
Time: 12 h
Notes: mean of 2 replicates
Reference: DMSO control
Direction: higher = more nuclear SOX9
Measurement: nuclear SOX9 intensity
CCN(CC)CC1CCCCN1CC(=O)N1c2ccccc2C(=O)Nc2cccnc21 (centres unmarked): 106 % of DMSO
CC(=O)[C@@]12O[C@](C)(c3ccccc3)O[C@@H]1C[C@H]1[C@@H]3CCC4=CC(=O)CC[C@]4(C)[C@H]3CC[C@@]12C: 124 % of DMSO
COc1cc(-c2cn(C)c(=O)c3cnccc23)c(OC)cc1CN(C)C: 106 % of DMSO and 107 % of DMSO

Block 4
Target: Sal-like protein 4, full length isoform A (SALL4, Homo sapiens, UniProt Q9UJQ4, residues 1-1053)
Sequence of UniProt Q9UJQ4 (whole entry, looked up): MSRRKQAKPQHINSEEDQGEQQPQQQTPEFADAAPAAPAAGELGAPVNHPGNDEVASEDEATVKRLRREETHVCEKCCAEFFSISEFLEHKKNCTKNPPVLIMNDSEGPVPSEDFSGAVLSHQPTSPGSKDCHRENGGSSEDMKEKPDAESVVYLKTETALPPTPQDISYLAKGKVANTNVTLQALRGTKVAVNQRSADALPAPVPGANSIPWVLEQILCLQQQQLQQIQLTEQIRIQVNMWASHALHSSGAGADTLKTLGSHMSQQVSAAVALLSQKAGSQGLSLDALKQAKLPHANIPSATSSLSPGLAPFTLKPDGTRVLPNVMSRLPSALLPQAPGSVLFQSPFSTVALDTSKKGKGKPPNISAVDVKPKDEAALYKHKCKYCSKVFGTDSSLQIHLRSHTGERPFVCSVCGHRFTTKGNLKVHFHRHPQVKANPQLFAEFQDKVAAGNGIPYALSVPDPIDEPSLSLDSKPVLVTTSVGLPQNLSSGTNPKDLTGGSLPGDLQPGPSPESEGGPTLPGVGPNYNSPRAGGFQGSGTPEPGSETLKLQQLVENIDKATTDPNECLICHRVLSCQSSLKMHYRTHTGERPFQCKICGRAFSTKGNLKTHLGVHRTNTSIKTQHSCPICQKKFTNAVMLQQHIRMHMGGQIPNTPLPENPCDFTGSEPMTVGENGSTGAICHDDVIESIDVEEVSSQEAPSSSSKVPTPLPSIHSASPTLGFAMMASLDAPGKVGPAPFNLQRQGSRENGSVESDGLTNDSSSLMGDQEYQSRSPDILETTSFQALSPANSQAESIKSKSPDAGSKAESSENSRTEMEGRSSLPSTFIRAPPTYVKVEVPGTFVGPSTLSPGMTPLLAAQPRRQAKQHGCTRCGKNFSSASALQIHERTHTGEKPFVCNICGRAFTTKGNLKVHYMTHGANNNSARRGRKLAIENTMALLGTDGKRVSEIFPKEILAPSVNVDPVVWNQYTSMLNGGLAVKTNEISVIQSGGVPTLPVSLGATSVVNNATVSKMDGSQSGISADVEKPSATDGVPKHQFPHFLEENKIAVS
Method: universal PBM
Form: double-stranded DNA, one strand shown
Medium: in vitro
Tested at: 600 nM
Notes: 8-mer, flanks averaged, mean of replicates
Direction: higher = stronger binding
Measurement: E-score
CACGGGGA: -0.325
AGATGCGC: -0.077
CTAGCCCA: -0.132
CATCTTCG: 0.0554
CATTCGAG: 0.0443
ACTAAACA: 0.232
CGAGGGTA: -0.142
GGGACATA: 0.113

Other studies, line by line
c1ccc(Oc2ccc(Nc3c4c(nc5ccccc35)CCC4)cc2)cc1
cytotoxicity (PMA-differentiated THP-1 macrophages; 8 µM, 64 h): 27% and 21%

Repeated from above (block 1):
O=C(Nc1cnc(Oc2ccc(F)cc2)nc1)N1CCc2ncccc2[C@@H]1c1ccc(F)cc1: 9.77%
CC(C)(O)c1cncc(-c2nc3ccc(F)cc3n2C2CC2)c1: 74.6%
CNC(=O)c1ccc(Nc2ncc(C(F)(F)F)c(NCc3nccnc3N(C)S(C)(=O)=O)n2)cc1: 9.61%
